Experimental data from different studies.
Numbered parts are unrelated; each lists some results of a single study. Positions count from the first letter of the parent shown.

Series 1 — method: protein binding microarray; molecule type: double-stranded DNA, one strand shown; medium: in vitro; concentration: not given; reference: not given; reading: higher = stronger binding; measurement: E-score
Target: Histone acetyltransferase KAT6A, winged helix 1, GST fusion (KAT6A, Homo sapiens, UniProt Q92794, residues 1-85)
Notes: 8-mer, flanks averaged, mean of 2 arrays, mostly near background
Target sequence (chain): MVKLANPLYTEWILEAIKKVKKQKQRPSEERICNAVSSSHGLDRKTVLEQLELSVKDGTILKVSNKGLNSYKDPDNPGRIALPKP
ATGGGATC: -0.0985
AGGATTGG: -0.2
CAGTATAC: -0.149
AGATAGTA: -0.0464
ATATACGC: 0.251
AACTGACC: 0.000925
AGAAATAA: -0.217

Series 2 — target: CCNB3, cyclin fold, Cln2 fusion (human); method: yeast growth competition, sequencing; medium: yeast; notes: weak parent motif; reference: not given; reading: higher = stronger binding; measurement: normalised enrichment score
Starting sequence: CDKN1A docking peptide (human); SKACRRLFGPVDS
G9W: 0.64
K2S: 0.53
D12K: 0.368
G9L: 0.449

Series 3 — method: universal PBM; molecule type: double-stranded DNA, one strand shown; medium: in vitro; concentration: not given; reading: higher = stronger binding; measurement: E-score
Target: Sal-like protein 4, full length isoform B (SALL4, Homo sapiens, UniProt Q9UJQ4-2, residues 1-616)
Notes: 8-mer, flanks averaged, mean of replicates
Construct (chain): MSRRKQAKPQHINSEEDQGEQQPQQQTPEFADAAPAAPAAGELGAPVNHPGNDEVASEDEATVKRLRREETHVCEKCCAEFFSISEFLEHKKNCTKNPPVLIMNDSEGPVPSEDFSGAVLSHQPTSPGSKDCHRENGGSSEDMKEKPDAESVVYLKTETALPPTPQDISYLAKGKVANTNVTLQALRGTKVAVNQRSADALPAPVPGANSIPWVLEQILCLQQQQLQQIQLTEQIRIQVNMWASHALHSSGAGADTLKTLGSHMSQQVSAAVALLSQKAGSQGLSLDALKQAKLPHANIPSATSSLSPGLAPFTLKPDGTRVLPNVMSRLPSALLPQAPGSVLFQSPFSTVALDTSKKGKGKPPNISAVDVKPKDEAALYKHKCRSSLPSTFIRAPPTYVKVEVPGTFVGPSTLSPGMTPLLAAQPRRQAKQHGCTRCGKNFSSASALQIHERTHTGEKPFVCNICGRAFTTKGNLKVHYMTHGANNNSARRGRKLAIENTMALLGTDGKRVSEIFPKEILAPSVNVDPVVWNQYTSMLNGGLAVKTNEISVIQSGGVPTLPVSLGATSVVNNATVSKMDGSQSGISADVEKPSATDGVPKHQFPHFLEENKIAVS
ATACCGCC: -0.156
ATCGGAAG: 0.106
ACGGGTGG: -0.326
CATAGTCG: 0.0611
AGGCGCAA: -0.0613
GAAAAGTA: 0.23
TAAAACCA: 0.208
GATACAAA: 0.229

Single results of other studies
PhoQ, residues 284 288 289 292 302 303 TNSAEL  fold induction (PhoP, residues 12 14 15 18 19 LHHVQ (Escherichia coli, UniProt P23836); Sort-seq, refers to: YFP reporter; E. coli; PhoQ-PhoP variant library, with: 10 µM Mg2+; reference: high Mg2+ state, higher = stronger signaling): 17.7

For quick reference, copied from above (series 3):
CATAGTCG: 0.0611
AGGCGCAA: -0.0613
GAAAAGTA: 0.23
